Published values collected from several papers.
“And” joins repeats or separate records; there may be more than shown. ± marks the error that the study gave.

O=C1NC2(CC2)COc2ncc(F)cc2[C@H]2COCCN2c2ccn3ncc1c3n2 — mean corpuscular volume (Sprague-Dawley rat, male, blood; oral, 10 mg/kg/day, 4 weeks, end of treatment, subacute toxicity): 66.4 ± 3.3 fL
CSCC[C@H](NC(=O)[C@@H](NC(=O)[C@H](CC(C)C)NC(=O)[C@@H](NC(=O)[C@H](Cc1c[nH]cn1)NC(=O)CCCCCNC(=O)[C@H](CCCNC(=N)N)NC(=O)[C@H](CCCNC(=N)N)NC(=O)[C@H](CCCNC(=N)N)NC(=O)[C@H](CCC(N)=O)NC(=O)[C@H](CCCNC(=N)N)NC(=O)[C@H](CCCNC(=N)N)NC(=O)[C@H](CCCCN)NC(=O)[C@H](CCCCN)NC(=O)[C@H](CCCNC(=N)N)NC(=O)CNC(=O)[C@@H](N)Cc1ccc(O)cc1)C(C)C)C(C)C)C(=O)N[C@@H](CS)C(=O)N[C@@H](C)C(=O)N[C@H](C(N)=O)[C@@H](C)O — MCHC (C57BL/6J mice; Alzet osmotic pump, 3 mg/kg, 8 weeks): 31.3 g/dL and 30.7 g/dL and 30.3 g/dL
COc1ccc(CNc2ccc3c(c2)S(=O)(=O)C=C3)cc1 — haemoglobin (male C57BL/6 mice, blood; intraperitoneal, 5 mg/kg, day 8, group average): 158 g/L
CCN(Cc1ccccc1)C(=O)CCc1nc(CN2CCN(C(=O)Cc3ccc(OC)c(OC)c3)CC2)no1 — time to first slip (rotarod test; mouse, CCI neuropathic pain model; 1 mg/kg): 0.85 ± 0.07 min
N#[11C]c1ccc(-c2csc(NN=C3CCCC3)n2)cc1 — radioactivity uptake (C57BL/6 mice, male, bone; intravenous, 3 MBq, 1 min): 1.56 ± 0.39 %ID/g
CCCC[C@H]1C(=O)N(C)[C@@H](CCCC)C(=O)N[C@@H](CCCNC(=O)CN2CCN(CC(=O)O)CCN(CC(=O)O)CCN(CC(=O)O)CC2)C(=O)N[C@H](C(=O)NCC(N)=O)CSCC(=O)N[C@@H](Cc2ccc(O)cc2)C(=O)N(C)[C@@H](C)C(=O)N[C@@H](CC(N)=O)C(=O)N2CCC[C@H]2C(=O)N[C@@H](Cc2c[nH]cn2)C(=O)N[C@@H](CC(C)C)C(=O)N(C)CC(=O)N[C@@H](Cc2c[nH]c3ccccc23)C(=O)N[C@@H](CO)C(=O)N[C@@H](Cc2c[nH]c3ccccc23)C(=O)N1C [gallium-68 labelled] — tissue-to-tissue ratio (NOD/SCID mice, CHO-hPD-L1 xenograft, tumour over liver; iv, dose not given, 10 min; reference: tumour over liver): 0.48 ± 0.11
CSCC[C@H](N)C(=O)N[C@@H](C)C(=O)N[C@@H](CCCNC(=N)N)C(=O)N[C@@H](CCCNC(=N)N)C(=O)N[C@@H](CC(=O)O)C(=O)N[C@@H](CCCCN)C(=O)N[C@H](C(=O)N[C@@H](CC(=O)O)C(=O)N[C@@H](Cc1ccccc1)C(=O)N[C@@H](C)C(=O)N[C@@H](CCCNC(=N)N)C(=O)N[C@@H](CCCNC(=N)N)C(=O)N[C@@H](CCCNC(=N)N)C(=O)N[C@@H](CCCNC(=N)N)C(=O)NCCCCCC(=O)NCCCCC(NC(=O)CCCCCNC(=O)[C@H](CCCNC(=N)N)NC(=O)[C@H](CCCNC(=N)N)NC(=O)[C@H](CCCNC(=N)N)NC(=O)[C@H](CCCNC(=N)N)NC(=O)[C@H](C)NC(=O)[C@H](Cc1ccccc1)NC(=O)[C@H](CC(=O)O)NC(=O)[C@@H](NC(=O)[C@H](CCCCN)NC(=O)[C@H](CC(=O)O)NC(=O)[C@H](CCCNC(=N)N)NC(=O)[C@H](CCCNC(=N)N)NC(=O)[C@H](C)NC(=O)[C@@H](N)CCSC)[C@@H](C)O)C(=O)NCCCCC(NC(=O)C(CCCCNC(=O)CCCCCNC(=O)[C@H](CCCNC(=N)N)NC(=O)[C@H](CCCNC(=N)N)NC(=O)[C@H](CCCNC(=N)N)NC(=O)[C@H](CCCNC(=N)N)NC(=O)[C@H](C)NC(=O)[C@H](Cc1ccccc1)NC(=O)[C@H](CC(=O)O)NC(=O)[C@@H](NC(=O)[C@H](CCCCN)NC(=O)[C@H](CC(=O)O)NC(=O)[C@H](CCCNC(=N)N)NC(=O)[C@H](CCCNC(=N)N)NC(=O)[C@H](C)NC(=O)[C@@H](N)CCSC)[C@@H](C)O)NC(=O)CCCCCNC(=O)[C@H](CCCNC(=N)N)NC(=O)[C@H](CCCNC(=N)N)NC(=O)[C@H](CCCNC(=N)N)NC(=O)[C@H](CCCNC(=N)N)NC(=O)[C@H](C)NC(=O)[C@H](Cc1ccccc1)NC(=O)[C@H](CC(=O)O)NC(=O)[C@@H](NC(=O)[C@H](CCCCN)NC(=O)[C@H](CC(=O)O)NC(=O)[C@H](CCCNC(=N)N)NC(=O)[C@H](CCCNC(=N)N)NC(=O)[C@H](C)NC(=O)[C@@H](N)CCSC)[C@@H](C)O)C(N)=O)[C@@H](C)O (stereo partly drawn) — mean tissue distribution (C57BL/6 mouse female, thymus; dose not given, 3 h; reference: total): 0.44%
C[C@H](O)[C@@H](NC(=O)[C@H]1CCCN1C(=O)[C@@H](CCCCN)NC(=O)[C@@H](CO)NC(=O)[C@@H](Cc1ccc(O)cc1)NC(=O)[C@@H](CC(N)=O)NC(=O)CCOCCOCCOCCNC(=O)CN1CCN(CC(=O)O)CCN(CC(=O)O)CCN(CC(=O)O)CC1)C(=O)N[C@H](CC(=O)O)C(=O)N[C@H](CCCNC(=N)N)C(=O)N[C@H](CCC(N)=O)C(=O)N[C@H](Cc1ccc(O)cc1)C(=O)N[C@H](Cc1c[nH]cn1)C(=O)N[C@H](Cc1ccccc1)C(N)=O [copper-64 labelled] — tissue uptake (C57BL/6J mice, brain; intravenous, 1.85 MBq, 1 h, radiolabelled): 0.04 ± 0.01 %ID/g
C[C@@H]1COCCN1c1nc(NCc2cccnc2C(F)(F)F)c2cccnc2n1 — hepatocyte CLint (metabolic stability; monkey, hepatocytes): 6.9 µL/min/10⁶ cells
Cc1ccccc1-c1ccc(-c2nc(-c3ccc(CN(C)CCCC(=O)O)c([18F])c3)no2)cc1C(F)(F)F — tracer uptake (rat, lung; 5 min): 3.69 %ID/g
CC[C@H](C)[C@H](NC(=O)[C@H](CCCCN)NC(=O)CNC(=O)[C@H](CC(C)C)NC(=O)[C@H](Cc1ccccc1)NC(=O)[C@H](CCCCN)NC(=O)[C@H](CO)NC(=O)[C@H](Cc1ccccc1)NC(=O)[C@H](Cc1c[nH]c2ccccc12)NC(=O)[C@H](CCC(N)=O)NC(=O)[C@@H](NC(=O)[C@H](Cc1ccccc1)NC(=O)CCCCCNC(=O)CN1CCN(CC(=O)O)CCN(CC(=O)O)CCN(CC(=O)O)CC1)C(C)C)C(=O)N[C@@H](CCC(=O)O)C(=O)N1CCC[C@H]1C(=O)N[C@@H](CC(=O)O)C(=O)N[C@H](C(=O)N[C@@H](CO)C(=O)N[C@@H](CCC(N)=O)C(=O)N[C@H](C(=O)N[C@@H](CCC(N)=O)C(=O)N[C@@H](CC(=O)O)C(=O)N1CCC[C@H]1C(=O)N[C@@H](CC(N)=O)C(=O)N[C@@H](CC(=O)O)C(=O)N[C@@H](CCC(N)=O)C(=O)N[C@@H](Cc1ccc(O)cc1)C(=O)N[C@@H](CCC(=O)O)C(=O)N1CCC[C@H]1C(=O)N[C@@H](Cc1ccccc1)C(=O)O)C(C)C)C(C)C [copper-64 labelled] — SUVmean (dynamic PET; mouse both sexes, CT26 tumour, checkpoint inhibitor-treated, tumour; intravenous, 100 µCi/mouse, 750 s): 3.21 SUV
C=Cc1c(C)c2cc3nc(c(CC(=O)[O-])c4[n-]c(cc5nc(cc1[n-]2)C(C)=C5CC)c(C)c4C(=O)[O-])C(CCC(=O)[O-])C3C.[Cu+2].[Na+].[Na+].[Na+] (stereo not drawn) — serum creatinine (Wistar rat, male; oral, 250 mg/kg daily, 28 days): 0.37 ± 0.05 mg/dL

Repeated from above:
CC[C@H](C)[C@H](NC(=O)[C@H](CCCCN)NC(=O)CNC(=O)[C@H](CC(C)C)NC(=O)[C@H](Cc1ccccc1)NC(=O)[C@H](CCCCN)NC(=O)[C@H](CO)NC(=O)[C@H](Cc1ccccc1)NC(=O)[C@H](Cc1c[nH]c2ccccc12)NC(=O)[C@H](CCC(N)=O)NC(=O)[C@@H](NC(=O)[C@H](Cc1ccccc1)NC(=O)CCCCCNC(=O)CN1CCN(CC(=O)O)CCN(CC(=O)O)CCN(CC(=O)O)CC1)C(C)C)C(=O)N[C@@H](CCC(=O)O)C(=O)N1CCC[C@H]1C(=O)N[C@@H](CC(=O)O)C(=O)N[C@H](C(=O)N[C@@H](CO)C(=O)N[C@@H](CCC(N)=O)C(=O)N[C@H](C(=O)N[C@@H](CCC(N)=O)C(=O)N[C@@H](CC(=O)O)C(=O)N1CCC[C@H]1C(=O)N[C@@H](CC(N)=O)C(=O)N[C@@H](CC(=O)O)C(=O)N[C@@H](CCC(N)=O)C(=O)N[C@@H](Cc1ccc(O)cc1)C(=O)N[C@@H](CCC(=O)O)C(=O)N1CCC[C@H]1C(=O)N[C@@H](Cc1ccccc1)C(=O)O)C(C)C)C(C)C [copper-64 labelled] — SUVmean (dynamic PET; mouse both sexes, CT26 tumour, checkpoint inhibitor-treated, tumour; intravenous, 100 µCi/mouse, 750 s): 3.21 SUV
C=Cc1c(C)c2cc3nc(c(CC(=O)[O-])c4[n-]c(cc5nc(cc1[n-]2)C(C)=C5CC)c(C)c4C(=O)[O-])C(CCC(=O)[O-])C3C.[Cu+2].[Na+].[Na+].[Na+] (stereo not drawn) — serum creatinine (Wistar rat, male; oral, 250 mg/kg daily, 28 days): 0.37 ± 0.05 mg/dL
